Experimental data from different studies.
Numbered parts are unrelated; each lists some results of a single study.

Set 1
Target: RNA binding protein fox-1 homolog 2, RRM domain, GST-SBP tag (RBFOX2, Homo sapiens, UniProt O43251-10, residues 100-194)
Method: RNA Bind-n-Seq
Form: RNA
Matrix: in vitro
Tested at: 365 nM
Setting: natural RNA segment, single round, ends assumed
Reference: no-protein control
Direction: higher = stronger binding
Shared flanks, not repeated: GGGAGUUCUACAGUCCGACGAUC … UGGAAUUCUCGGGUGCCAA
Oligonucleotide | RBNS enrichment (R)
GGUUUGAAACUGUAUAGGAAGAACAGGUAAAGGCAGGUGGAGUGCACACAGAUCGCACCACAUGGCUUGUAAUGAUUUUCUGUGUCUGUCAUCGUCAGCGUGUCAUCUGG | 0.731
GCCCCUUCUGAAUCUCUCCAGCAGCCAGAGGCACGUGAGAAGCAGAAAGAGCUGGUAAAUAAAGCCUUGGGCAAGCGACUUCUUAGAUCAGAACUCACCAAAUGGAAGCC | 0.445
AGCAUGGGAGCCCUUCUCUUCUGAGCCUUGCGUGCCCGUGGACCAGGGUGAGGGCACAGGCUCCAGAACUGCCCAGGAAGGGUGCUCUUACUGCUGGAGCAUGCUACUGU | 8.98
AAAAUAUAUGUACUUUAAAAAGUUCUGAUUUCCAAAUAUAAUAAAGUUAAAAUUAAGUAUAUACUUUAGGAAGUUACCAAUAACUUCCAUCAAAGCAGAGUAGGAUAUAU | 0.535
AAUGAAGAAAUGAAUUGCCAAAACCACUGAGGCCUCCUCUCAAAACAAAACAUAUAAAAGUAACAGAAUCUAGCUGGGCUAUGGUGGGACACAGCUUUAAUCUCAGGAAC | 0.704
CCUAGGACAGUGUAAUACAUUUAUGUGAAGUAAAGACAUGCGAGACUGGUGGCCUGCAAAUAGCAUCCGUUGAUCUGUGUUAACUGCAUAGGGAGGGCUCUGCAUAGCAC | 1.05
AGCUAUCUUGAGUGAAAGUCCUCACUGACGAGUAUGCAAACCAAAUAGCCUCCUGCACAGUAGCCUCUCCUUCCUGUCACCAAAACAGUUUUAGGUCUGCUGAAGUCUGG | 0.372
AGCUAGGCUGUUUCUGAUAUCCAAUCAUUGGUUUAACAAUAAAGGCAAUUUGUUUAAUCAGUUAACGGAAAUUUCUUGGCUUAUGAAAGUGAAAAGUCCAGUGGUAUUGG | 0.564

Set 2
Target: Ras GTPase-activating protein-binding protein 1, C-terminal RGG region (G3BP1, Homo sapiens, UniProt Q13283)
UniProt Q13283, sequence (whole entry, looked up): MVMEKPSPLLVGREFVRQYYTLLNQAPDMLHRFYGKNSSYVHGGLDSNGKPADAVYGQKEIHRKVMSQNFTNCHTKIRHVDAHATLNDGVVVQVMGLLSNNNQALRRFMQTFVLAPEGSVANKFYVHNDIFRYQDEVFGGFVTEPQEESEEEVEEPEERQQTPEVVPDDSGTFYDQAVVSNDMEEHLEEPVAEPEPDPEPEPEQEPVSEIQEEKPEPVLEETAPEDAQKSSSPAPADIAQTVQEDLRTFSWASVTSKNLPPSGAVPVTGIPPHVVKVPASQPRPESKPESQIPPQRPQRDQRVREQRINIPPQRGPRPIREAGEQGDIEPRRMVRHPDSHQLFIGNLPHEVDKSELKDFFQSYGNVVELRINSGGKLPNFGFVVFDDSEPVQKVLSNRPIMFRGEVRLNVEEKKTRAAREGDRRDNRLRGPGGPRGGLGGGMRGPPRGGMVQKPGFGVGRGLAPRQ
Method: RNA Bind-n-Seq
Form: RNA
Matrix: in vitro
Tested at: 1 µM
Setting: whole 134-nt RNA, ends assumed
Together with: 150 mM KCl
Reference: input library
Direction: higher = stronger binding
Shared flanks, not repeated: GGGAGUUCUACAGUCCGACGAUC … UGGAAUUCUCGGGUGUCAAGG
Oligonucleotide | log2 enrichment
UGUGCUACACAUCGUAUGUACCGAAUCGGGGCCCCCCCGGGGCCCCCCCGGGGCCCCCCCGGGAAAGUAUUAUGUUACGCCGUUCGGAUC | -2.54
CCUGUGCUACACAUCGUAUGUACCGAAUCGGGGUGGGGUUUUUUUGGGGAAAAAAAGGGGAAAGUAUUAUGUUACGCCGUUCGGAUCUGC | -0.272
UGGCCCUGGUGGCAUGCGGGGAGGAAGAGGUGGCCUCAUGGAUCGUGCUGGUCCCGGUGGAAUGUUCAGAGGUGGCCGUGGUGGAGACAG | 0.96
UUCAGGAUUGUGAGGGUGAAACUCCCAUUCACAAGGCAGCUCGCUCUGGGAGCCUAGAAUGCAUCAGUGCCCUUGUGGCGAAUGGGGCUC | -1.65
UCAAGUCCUGUGCUACACAUCGUAUGUACCGAAUCGGGAGGGUGGGUUUUUGGGAAAGUAUUAUGUUACGCCGUUCGGAUCUGCACUUCC | 1.67
UAACUUUAGAGGAGGAUCUGAUGGAUAUGGCAGUGGACGUGGUUUUGGGGAUGGCUAUAAUGGGUAUGGAGGAGGACCUGGAGGUGGCAA | -1.24

Set 3
Target: Interferon regulatory factor 5, full length, phosphomimetic (IRF5, Homo sapiens, UniProt Q13568-2, residues 1-514, S451D/S453D/S456D/S462D)
Method: protein-binding microarray
Form: double-stranded DNA, one strand shown
Matrix: in vitro
Tested at: 940 nM top
Setting: 60-bp whole probe
Together with: salmon DNA 0.4 mg/ml
Reference: random background probes
Direction: higher = stronger binding
Shared flanks, not repeated: GCCTAGCAC … GTCTTGATTCGCTTGACGCTGCTG
Oligonucleotide | fitted relative affinity
GACGATTTAGGGTATCGAGACGTGCTA | 0.216 z-score
TTAAATTTCGGGACTGGATTAGTGCTA | 0.409 z-score
TCAAAAATGGAAACTCGTACTGTGCTA | 0.467 z-score
GACGGGCTCCTACTGCTGACGTGCTAG | -0.25 z-score
TTAGGTATGGACTTTCGGTTAGTGCTA | 2.1 z-score
TCAATTTTTGCTTACGAACTGTGCTAG | 0.259 z-score
TAAGGTTTCGGTCTCGGTTAGTGCTAG | 12.3 z-score
TTAGGTTGCGGGTATCGGTTAGTGCTA | 3.15 z-score
TCAGTCTTGGTTCTCAGACTGTGCTAG | 1.23 z-score
GACGGACTGGGTCTCGGAACGTGCTAG | -0.0575 z-score
CTAGAACTGAGTTTCGATTAGTGCTAG | 7.96 z-score
TTAGGTTTCGGTCGCGGTTAGTGCTAG | 14.8 z-score
TCAGGTTTACCAGATCATCTGGTGCTA | 0.0384 z-score
TTAGAACTGAGTATCGATTCGTGCTAG | 3.53 z-score
GACGGACTGGGGACTGTGGACGTGCTA | -0.152 z-score
GACGGTATCGACTTACGGGACGTGCTA | 4.93 z-score

Set 4
Target: RING finger protein unkempt homolog, zinc fingers 1-6, GST-SBP tag (UNK, Homo sapiens, UniProt Q9C0B0, residues 30-357)
UniProt Q9C0B0, sequence (30-357, looked up): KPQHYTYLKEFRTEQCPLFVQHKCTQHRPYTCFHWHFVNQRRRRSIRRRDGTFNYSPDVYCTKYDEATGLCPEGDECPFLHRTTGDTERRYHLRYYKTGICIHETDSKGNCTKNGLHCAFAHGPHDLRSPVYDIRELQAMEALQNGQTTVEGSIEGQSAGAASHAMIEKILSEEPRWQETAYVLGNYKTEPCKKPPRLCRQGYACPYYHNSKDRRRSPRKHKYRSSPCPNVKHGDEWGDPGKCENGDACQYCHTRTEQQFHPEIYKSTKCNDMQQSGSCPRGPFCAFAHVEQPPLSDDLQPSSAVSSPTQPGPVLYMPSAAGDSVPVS
Method: RNA Bind-n-Seq
Form: RNA
Matrix: in vitro
Tested at: not given
Setting: RNA with constant flanks, ends assumed
Reference: input RNA pool
Direction: higher = stronger binding
Shared flanks, not repeated: GGGAGUUCUACAGUCCGACGAUC … CAACAGAGGAUUGAGCAUCA
Oligonucleotide | bound/input enrichment [ratio]
AUUUUUUCAGUGUGCCCCAAGGGCAUUAAUGAGCCUUUAUAACUGAGAAAUGAUUCUUGUUACCGUAAUUAUUCCAUAAAUGAUACCACUAGAUAAAUUACCUUGGGUUAAUAGCUCCAG | 3.35
AGGUUGGGCCAUGACCCCUAUAGAUUAGGUCAUGAUGCUUACAGGUUAGGACAAGACCCUUACCGAUCCGGCCAUGAUCCCUACAGACUAACUCCUGAUCCCUAUAGGAUGUCACCUAGA | 1.77
UCCACGCCUGAGUUCUACCAAGUAUGCCACACCAAAAAGGAUUAUGAAGAAAUUGGACCCCGCAUUUGUCGUCACAAUCCAGUGUUUGGAGUCAUGUCGUAAAAUUGGCUUCAUAGUUAU | 0.344
CACUUCUUAAGAGAGAAGAGAGAGGAAGUCAGGGGACACACAGGCUGAGUGGCCGUGUGGCCGUUCUCCUGUCUGUGUAUAAAUAUUUACAUGUUCUGUGUGGUCUGAAUGCAGAAGCUC | 0.184
AGAGUCCAAUAAAAUCGCUGCCUCCCAGCUGUUUGGAUCACAGAGAGGUUUUUGCACUGCCACCGGGCGCCCCCGUGAGGCGCUUCGCCCCCCACCAUGUUCCAGCGCCUCUCCAGCCUC | 0.414
GAAGAUGGAGAAGAUCAACCAAAGCAAGUUUAUGUAGACAAAUUGGCUGAAUUAAAAAGUUCCGGUCAACCCAUUAAGACACGGUUCCAGGAAUCUGAAGAAAGACCAAAAUUAUUUGAA | 0.382
UCAAAAUUCUUCUCUGCCUACAAAAGUCAUUUCCGGAAUGUCCAUAGUGAAGACUUUGAAAACCGGAUUCUCCUUAACUGCCCUUACUGUACCUUCAAUGCAGAUAAAAAGACUUUGGAA | 0.173
GAAUUGAUUAAAGAGAAACUCAUUUUUCCCUACGUGGAAUUGGAUCUACAUAGCUAUGAUUCCGGCACCGAGAAUCGUGAUGCCACCAACGACCAAGUCACCAAGGAUGCUGCAGAAGCU | 0.261

Excerpt of the above (set 3):
Oligonucleotide | fitted relative affinity
GACGGACTGGGTCTCGGAACGTGCTAG | -0.0575 z-score
GACGGGCTCCTACTGCTGACGTGCTAG | -0.25 z-score
GACGGTATCGACTTACGGGACGTGCTA | 4.93 z-score
TTAGGTTGCGGGTATCGGTTAGTGCTA | 3.15 z-score
GACGGACTGGGGACTGTGGACGTGCTA | -0.152 z-score
GACGATTTAGGGTATCGAGACGTGCTA | 0.216 z-score
